# Assay results collected from several papers.
# Each line is one published result; not all experiments were run side by side. ± gives the spread as reported.
# BCHE: Cholinesterase (BCHE, Homo sapiens, UniProt P06276)
# UniProt P06276, sequence (whole entry, looked up): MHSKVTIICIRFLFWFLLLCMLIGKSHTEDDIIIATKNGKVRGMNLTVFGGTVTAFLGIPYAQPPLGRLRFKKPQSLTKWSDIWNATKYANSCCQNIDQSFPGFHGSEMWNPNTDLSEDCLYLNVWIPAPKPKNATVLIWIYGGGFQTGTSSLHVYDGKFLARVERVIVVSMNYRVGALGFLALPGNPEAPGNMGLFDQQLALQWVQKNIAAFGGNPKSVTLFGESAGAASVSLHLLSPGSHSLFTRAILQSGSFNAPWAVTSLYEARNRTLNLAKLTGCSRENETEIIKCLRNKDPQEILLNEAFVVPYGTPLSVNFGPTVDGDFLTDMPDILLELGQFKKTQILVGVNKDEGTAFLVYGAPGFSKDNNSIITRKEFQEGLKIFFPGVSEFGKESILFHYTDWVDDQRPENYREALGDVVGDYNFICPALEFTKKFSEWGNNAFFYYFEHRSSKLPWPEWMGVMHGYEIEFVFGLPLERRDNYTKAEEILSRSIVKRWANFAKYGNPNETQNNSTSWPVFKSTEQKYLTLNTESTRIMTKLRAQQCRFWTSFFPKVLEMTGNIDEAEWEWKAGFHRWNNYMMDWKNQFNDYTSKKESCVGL
# UniProt Q15759, sequence (whole entry, looked up): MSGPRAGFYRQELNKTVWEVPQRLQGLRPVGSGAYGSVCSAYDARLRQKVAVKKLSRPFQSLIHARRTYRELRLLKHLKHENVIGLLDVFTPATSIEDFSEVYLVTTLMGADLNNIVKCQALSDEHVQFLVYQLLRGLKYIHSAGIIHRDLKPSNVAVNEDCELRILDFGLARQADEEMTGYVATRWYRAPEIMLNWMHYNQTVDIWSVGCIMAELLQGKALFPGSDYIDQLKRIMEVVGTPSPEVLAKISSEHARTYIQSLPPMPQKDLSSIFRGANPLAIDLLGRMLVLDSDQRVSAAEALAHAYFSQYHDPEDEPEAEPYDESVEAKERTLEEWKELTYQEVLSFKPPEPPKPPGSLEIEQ
Compound,tested on,test,system,conditions,scale,measurement,value
COc1ccc(C[C@@H]2NC(=O)[C@H]([C@@H](C)O)NC(=O)[C@@H]3[C@@H]4CCN3C(=O)[C@@H]3Cc5cn(c6ccc(F)cc56)CCCCCCN(Cc5ccc(cc5)CCNC(=O)[C@]5(C)CCCN5C2=O)C(=O)CCC(=O)N[C@@H](C)C(=O)N[C@H](CNC(=O)CCCCC[N+](C)(C)C)C(=O)N[C@@H](Cc2cccc(c2)CNC(=O)CO4)C(=O)N3)cc1,,item: Paraesthesia,humans,"concentration not given, Study-001",,participants with adverse event,0%
COc1ccnc(C(=O)N[C@H]2COC(=O)[C@H](Cc3ccccc3)[C@@H](OC(=O)C(C)C)[C@H](C)OC2=O)c1OCOC(=O)C(C)C,,,"field soil, loam","actual, UK",,DT50,11.6 days
Clc1ccc(-c2ccccc2)cc1,,,"rat Sprague-Dawley female, serum","inhalation, 23 µg/rat, 2 h",,serum triglycerides,51 ± 21 mg/dL
CCOc1cc(Oc2ccc(C(F)(F)F)cc2Cl)ccc1[N+](=O)[O-],,,"rat, male","500 mg/kg, 4 days",,body weight gain,29.7%
C=CC(=O)Nc1cc(Nc2nccc(Nc3cc(Cl)c(F)cc3C(C)(C)O)n2)c(OC)cc1N1CC[C@@H](N(C)C)C1,,,human patients,"oral, 300 mg, treatment-emergent adverse events",,patients with AST increased,9.8%
Clc1ccc(-c2ccc(Cl)c(Cl)c2)cc1Cl,,,fresh water,"20 °C, S30-1 sampler, 30 µm",,log K(PDMS-water),5.53 ± 0.06
CO[C@H]1C[C@@H]2CC[C@@H](C)[C@@](O)(O2)C(=O)C(=O)N2CCCC[C@H]2C(=O)O[C@H]([C@H](C)C[C@@H]2CC[C@@H](OC(=O)NCCOCCOCCOCCOCCOCCOCCOCCOCCC(=O)N3CCc4cc(Cn5nc(-c6ccc7oc(N)nc7c6)c6c(N)ncnc65)ccc4C3)[C@H](OC)C2)C[C@@H](O)[C@H](C)/C=C(\C)[C@@H](O)[C@@H](OC)C(=O)[C@H](C)C[C@H](C)/C=C/C=C/C=C/1C,,,patients with advanced solid tumours,"intravenous, 1.6 mg/3 mg weekly, any grade",,incidence of Fatigue TRAE,20%
CC(=O)N(N(CCCl)S(C)(=O)=O)S(C)(=O)=O,,,"CD2F1 female mice, L1210 leukemia","ip, 60 days, single dose",,first toxic death dose,60 mg/kg
C[C@H]1CN(c2n[nH]c3nc(N[C@H]4CC[C@H](NS(=O)(=O)CCC(F)(F)F)CC4)ncc23)CCO1,"Mitogen-activated protein kinase 11 (MAPK11, Homo sapiens, UniProt Q15759)","competitor, Kinobeads competition","HEK293, K562, placenta extract",0.16 µM,reference: vehicle,relative abundance,0.65
CCCN(CCC)[C@H]1CCc2c(F)ccc(O)c2C1,Plasmodium falciparum,,W2,,,IC50,501 nM
CC(C)C[C@H](NC(=O)[C@H](CCCCN)NC(=O)OCC1c2ccccc2-c2ccccc21)C(=O)N[C@H](C(=O)N[C@@H](Cc1ccccc1)C(=O)N[C@@H](Cc1ccccc1)C(=O)N[C@@H](CCCCN)C(=O)NCC(=O)N[C@@H](Cc1ccccc1)C(=O)N[C@@H](C)C(=O)N[C@@H](Cc1c[nH]c2ccccc12)C(=O)N[C@@H](CC(N)=O)C(=O)N[C@H](C(=O)N[C@H]1CSSC[C@@H](C(=O)N[C@@H](Cc2c[nH]cn2)C(=O)N[C@@H](CCCNC(=N)N)C(=O)N[C@@H](CCCNC(=N)N)C(=O)N[C@@H](C)C(=O)N[C@@H](CC(N)=O)C(N)=O)NC(=O)[C@H](C(C)C)NC(=O)[C@H](CCCNC(=N)N)NC(=O)[C@H](C(C)C)NC(=O)CNC(=O)[C@H](CC(N)=O)NC(=O)[C@H](CCCNC(=N)N)NC(=O)[C@H](Cc2ccc(O)cc2)NC(=O)[C@H](C(C)C)NC1=O)C(C)C)C(C)C,,,"ICR mouse, blood","intramammary, 5 mg/kg, day 5, 3 d dosing",,lymphocytes,74.7 ± 1.18%
CC[C@H](C)[C@H](NC(=O)[C@H](Cc1ccccc1)NC(=O)[C@H](CCC(=O)O)NC(=O)[C@H](CCCNC(=N)N)NC(=O)[C@H](C)NC(=O)[C@H](C)NC(=O)[C@H](CCC(N)=O)NC(=O)[C@H](CCC(=O)O)NC(=O)[C@H](CCC(=O)O)NC(=O)[C@H](CC(C)C)NC(=O)[C@H](Cc1ccc(O)cc1)NC(=O)[C@H](CO)NC(=O)[C@H](CO)NC(=O)[C@@H](NC(=O)[C@H](CC(=O)O)NC(=O)[C@H](CO)NC(=O)[C@@H](NC(=O)[C@H](Cc1ccccc1)NC(=O)[C@@H](NC(=O)CNC(=O)[C@H](CCC(=O)O)NC(=O)[C@H](C)NC(=O)CCc1cnc[nH]1)[C@@H](C)O)[C@@H](C)O)C(C)C)C(=O)N[C@@H](C)C(=O)N[C@@H](Cc1c[nH]c2ccccc12)C(=O)N[C@@H](CC(C)C)C(=O)N[C@H](C(=O)N[C@@H](CCCNC(=N)N)C(=O)NCC(=O)N[C@@H](CCCNC(=N)N)C(=O)N[C@@H](CCCCNC(=O)COCCOCCNC(=O)COCCOCCNC(=O)CC[C@H](NC(=O)CCCCCCCCCCCCCCCCC(=O)O)C(=O)O)C(=O)NCC(=O)NCC(=O)N[C@@H](CO)C(=O)N[C@@H](CCCCNC(=O)[C@H](CCCCNC(=O)[C@H](CCCCNc1c(NCCCCCN(O)C(=O)CCC(=O)NCCCCCN(O)C(=O)CCC(=O)NCCCCCN(O)C(C)=O)c(=O)c1=O)Nc1c(NCCCCCN(O)C(=O)CCC(=O)NCCCCCN(O)C(=O)CCC(=O)NCCCCCN(O)C(C)=O)c(=O)c1=O)NC(=O)[C@H](CCCCNc1c(NCCCCCN(O)C(=O)CCC(=O)NCCCCCN(O)C(=O)CCC(=O)NCCCCCN(O)C(C)=O)c(=O)c1=O)Nc1c(NCCCCCN(O)C(=O)CCC(=O)NCCCCCN(O)C(=O)CCC(=O)NCCCCCN(O)C(C)=O)c(=O)c1=O)C(=O)O)C(C)C [zirconium-89 labelled],,ex vivo gamma counting,"male Sprague-Dawley rats, heart","intravenous, 1 nmol, 24 h",,tissue uptake,0.347 %ID/g
C[C@]1(O)C[C@@](N)(c2ccc(-c3nc4n(c3-c3ccccc3)COc3ccncc3-4)cc2)C1,,,"human, advanced or metastatic solid tumours","intermittent, dose escalation total, any grade",,patients with Nausea TEAE,14.3%
O=C(O)CCC(CP(=O)(O)O)C(=O)O (stereo not drawn),,,"rat, processed derivatized plasma","4 µg/mL, 18 h, 10 °C, autosampler stability",reference: nominal concentration,relative error,6.7%
Clc1ccc(Cl)c(-c2cc(Cl)c(Cl)c(Cl)c2Cl)c1,,,polyethylene-water partitioning,PCB compilation,reference: maximum over minimum K,literature range factor,2
CN[C@H]1CC[C@@H](c2ccc(Cl)c(Cl)c2)c2ccccc21,,,"CD-1 mouse, male, lung","intraperitoneal, 0.3 mg/kg",,Tmax,1 h
O=S(=O)(Nc1ccccc1)c1ccc(NC(=S)Nc2ccccc2)cc1,,,"male mouse, blood","oral, 20 mg/kg daily, 14 days",,haematocrit,44.5%
CC(C)OC(=O)c1cc2c(OCC(O)CNC(C)(C)C)cccc2[nH]1 (stereo not drawn),BCHE,"inhibitor, fluorometric",,,,IC50,6190 ± 3190 nM
COc1cccc2c1CCCC2CCCN1CCN(C2CCCCC2)CC1 (stereo not drawn),,,"CD-1 mouse, male, lung","intraperitoneal, 10 mg/kg",,elimination rate constant,5.3e-05 s⁻¹
CN(C(=O)n1cnc(-c2ccc[n+]([O-])c2)c1)C1CCCCC1,,,"Wistar rat, hippocampus","oral, 10 mg/kg/day, 4 h, repeated 5 days",,concentration,110 ± 45.6 ng/g
N[C@@H]1c2ccccc2OC12CCN(c1cnc3c(N4CCCc5ncccc54)n[nH]c3n1)CC2,,,patients advanced metastatic solid tumours,"oral, 60 mg once daily, RP2D expansion phase",,incidence grade ≥3 TEAE,60%
CCc1ccc(CC/C=C/c2ccc3c(c2)C(=O)CC3)cc1,,,"Sprague-Dawley rat, male","oral, 120 mg/kg/day, 14 days",,Mononuclear percentage,3.2%
COc1cccc(-c2ccnc(Nc3ccc(N4CCN(C)CC4)c(C(F)(F)F)c3)n2)c1,,,zebrafish embryos,"25 µM, 5 d",,toxicity,0%
C[C@@H](NC(=O)N1C(=O)[C@H](Cc2ccnc(N)c2)[C@H]1C(=O)O)C1CCCCC1,,,healthy Chinese adults,"continuous intravenous infusion, 2.25 mg/kg/h, 5.0 days",,decreased WBC,0%
Cl.Cl.[2H]C([2H])(CN)SSC([2H])([2H])CN,,,"C57BL/6J mouse, CDAA-HFD MASH model","oral gavage, 200 mg/kg once daily, 2 weeks",,toxicity signs,not toxic
Cc1cccc(S(=O)(=O)N2CCC[C@@H]2CCN2CCC(C)CC2)c1,BCHE,"inhibitor, fluorometric",,,,IC50,3870 ± 1410 nM
O=C1Nc2cc3[nH]nc(-c4ccncc4)c3cc2CN1Cc1ccccc1,,CTCAE v4.03,advanced solid tumour patients,"intravenous, 1.8 mg/kg, schedules 1/2",,patients with constipation,0%
CC(C)CC(=O)OC[C@H]1O[C@@](C#N)(c2ccc3c(N)ncnn23)[C@H](O)[C@@H]1O,,,"Sprague-Dawley rat, both sexes, faeces","80 mg/kg, time not given",reference: dose,recovery in faeces,0.0637%
CC(C)C[C@@H]1NC(=O)CNC(=O)[C@H](CC(N)=O)NC(=O)[C@H](CCCNC(=N)N)NC(=O)[C@H]([C@@H](C)O)NC(=O)[C@@H]2CSSC[C@@H]3NC(=O)[C@H]([C@@H](C)O)NC(=O)CNC(=O)CNC(=O)[C@H](C(C)C)NC(=O)[C@@H]4CSSC[C@H](NC(=O)[C@H]([C@@H](C)O)NC(=O)[C@H](CSSC[C@H](NC(=O)[C@H](C(C)C)NC(=O)[C@H](CCCCN)NC1=O)C(=O)NCC(=O)N[C@@H](CCC(=O)O)C(=O)N[C@@H]([C@@H](C)O)C(=O)N4)NC(=O)CNC(=O)[C@@H]1CCCN1C(=O)[C@H]([C@@H](C)O)NC(=O)[C@H](CC(N)=O)NC3=O)C(=O)N[C@@H](CO)C(=O)N[C@@H](Cc1c[nH]c3ccccc13)C(=O)N1CCC[C@H]1C(=O)N[C@@H](C(C)C)C(=O)N2,,HPLC,ammonium bicarbonate,"180 µM, 7 days, pH 9.0, 25 °C, deamidation stability",,remaining peptide,30.4 ± 2.3%
NC(=NCc1ccccc1)NC(=O)c1nc(Cl)c(N)nc1N,Plasmodium falciparum,,HB3,,,IC50,1000 nM
Clc1cc(Cl)c(-c2c(Cl)c(Cl)cc(Cl)c2Cl)cc1Cl,,,fresh water,"20 °C, S30-2 sampler, 30 µm",,log K(PDMS-water),6.7 ± 0.1
COc1cc2c(Oc3ccc4[nH]c(C)cc4c3F)ccnc2cc1OCC1(N)CC1,,,paediatric recurrent refractory sarcoma,8 mg/kg,,grade 1 or 2 TBIL elevation,0%
NC(=O)[C@H]1CCN(c2ncnc(N)c2F)C[C@@H]1N1CCC[C@@H](Nc2cc(Cl)cc(C(F)(F)F)c2)C1=O,,,B-cell malignancy patients,"oral, 82 mg twice daily, dose",,any grade ≥3 adverse event,29%

# A few entries again:
Compound,tested on,test,system,conditions,scale,measurement,value
COc1cccc(-c2ccnc(Nc3ccc(N4CCN(C)CC4)c(C(F)(F)F)c3)n2)c1,,,zebrafish embryos,"25 µM, 5 d",,toxicity,0%
C[C@@H](NC(=O)N1C(=O)[C@H](Cc2ccnc(N)c2)[C@H]1C(=O)O)C1CCCCC1,,,healthy Chinese adults,"continuous intravenous infusion, 2.25 mg/kg/h, 5.0 days",,decreased WBC,0%
Cl.Cl.[2H]C([2H])(CN)SSC([2H])([2H])CN,,,"C57BL/6J mouse, CDAA-HFD MASH model","oral gavage, 200 mg/kg once daily, 2 weeks",,toxicity signs,not toxic
Cc1cccc(S(=O)(=O)N2CCC[C@@H]2CCN2CCC(C)CC2)c1,BCHE,"inhibitor, fluorometric",,,,IC50,3870 ± 1410 nM
